{"data": "Measurements of several laboratories", "note": "A part holds a random share of what one study measured. Several values in a cell are separate wells, animals, samples, runs or records.", "UniProt Q13555, sequence (whole entry, looked up)": "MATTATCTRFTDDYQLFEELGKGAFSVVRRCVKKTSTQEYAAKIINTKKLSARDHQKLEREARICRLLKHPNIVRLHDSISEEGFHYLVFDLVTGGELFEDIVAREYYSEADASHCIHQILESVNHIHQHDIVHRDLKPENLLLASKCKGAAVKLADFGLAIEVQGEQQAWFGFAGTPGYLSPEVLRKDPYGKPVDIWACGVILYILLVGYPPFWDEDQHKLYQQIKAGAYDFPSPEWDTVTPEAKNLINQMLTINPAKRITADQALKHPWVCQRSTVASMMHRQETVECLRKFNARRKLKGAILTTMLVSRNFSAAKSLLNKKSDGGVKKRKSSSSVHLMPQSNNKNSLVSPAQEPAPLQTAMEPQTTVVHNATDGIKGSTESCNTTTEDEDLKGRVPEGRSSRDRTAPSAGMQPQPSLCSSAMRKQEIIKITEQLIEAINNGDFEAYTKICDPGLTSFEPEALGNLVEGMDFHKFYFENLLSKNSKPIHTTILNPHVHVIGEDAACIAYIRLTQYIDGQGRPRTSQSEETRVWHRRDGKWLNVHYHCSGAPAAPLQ", "UniProt O00444, sequence (whole entry, looked up)": "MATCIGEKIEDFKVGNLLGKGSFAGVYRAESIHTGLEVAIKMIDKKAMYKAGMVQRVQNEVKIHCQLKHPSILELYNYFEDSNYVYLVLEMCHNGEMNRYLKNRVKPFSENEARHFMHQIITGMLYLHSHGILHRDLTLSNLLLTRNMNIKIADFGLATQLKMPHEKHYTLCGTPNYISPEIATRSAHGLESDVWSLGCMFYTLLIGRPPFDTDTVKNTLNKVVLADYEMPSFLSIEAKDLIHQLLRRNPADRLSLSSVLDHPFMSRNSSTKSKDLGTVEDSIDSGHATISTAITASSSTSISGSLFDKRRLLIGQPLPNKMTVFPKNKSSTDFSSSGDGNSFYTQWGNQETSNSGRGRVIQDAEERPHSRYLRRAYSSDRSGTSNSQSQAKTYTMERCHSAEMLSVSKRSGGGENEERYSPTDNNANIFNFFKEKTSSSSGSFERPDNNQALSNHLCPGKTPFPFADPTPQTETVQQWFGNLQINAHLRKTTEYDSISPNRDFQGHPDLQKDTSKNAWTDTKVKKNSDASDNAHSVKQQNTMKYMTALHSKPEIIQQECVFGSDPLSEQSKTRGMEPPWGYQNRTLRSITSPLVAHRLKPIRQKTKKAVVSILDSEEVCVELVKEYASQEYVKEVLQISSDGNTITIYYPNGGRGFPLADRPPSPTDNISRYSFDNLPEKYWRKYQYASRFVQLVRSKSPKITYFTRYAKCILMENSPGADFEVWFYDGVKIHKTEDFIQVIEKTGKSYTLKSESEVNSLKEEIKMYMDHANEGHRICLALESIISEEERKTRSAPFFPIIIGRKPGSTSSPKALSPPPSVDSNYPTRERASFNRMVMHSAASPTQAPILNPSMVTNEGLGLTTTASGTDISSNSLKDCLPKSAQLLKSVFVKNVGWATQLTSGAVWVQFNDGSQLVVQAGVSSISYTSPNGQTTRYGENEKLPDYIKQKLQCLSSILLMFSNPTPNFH", "UniProt Q8IWQ3, sequence (whole entry, looked up)": "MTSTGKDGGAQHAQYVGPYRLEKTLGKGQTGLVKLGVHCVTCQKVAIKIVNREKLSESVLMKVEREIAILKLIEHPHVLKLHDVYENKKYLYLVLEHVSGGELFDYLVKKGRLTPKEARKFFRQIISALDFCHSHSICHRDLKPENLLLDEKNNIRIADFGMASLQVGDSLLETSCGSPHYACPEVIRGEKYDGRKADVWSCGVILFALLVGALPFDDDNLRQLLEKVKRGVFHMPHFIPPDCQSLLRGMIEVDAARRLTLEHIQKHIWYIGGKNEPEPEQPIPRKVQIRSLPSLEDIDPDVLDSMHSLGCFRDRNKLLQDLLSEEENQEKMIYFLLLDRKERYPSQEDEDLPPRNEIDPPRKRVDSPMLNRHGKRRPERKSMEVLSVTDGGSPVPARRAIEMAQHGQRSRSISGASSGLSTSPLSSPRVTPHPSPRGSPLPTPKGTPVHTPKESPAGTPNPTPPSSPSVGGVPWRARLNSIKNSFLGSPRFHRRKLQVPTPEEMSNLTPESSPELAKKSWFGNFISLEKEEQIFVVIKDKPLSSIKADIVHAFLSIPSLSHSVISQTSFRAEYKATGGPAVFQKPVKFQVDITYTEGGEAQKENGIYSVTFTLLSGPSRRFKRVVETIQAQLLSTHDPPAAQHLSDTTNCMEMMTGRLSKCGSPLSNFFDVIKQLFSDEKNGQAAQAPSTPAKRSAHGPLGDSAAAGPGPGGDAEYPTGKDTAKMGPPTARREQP"}
{"data": "Series 1", "target": "DNA polymerase theta, ATPase domain (POLQ, Homo sapiens, UniProt O75417)", "effect on": "enzyme activity", "action": "inhibitor", "concentration": "77 µM", "relative to": "untreated", "UniProt O75417, sequence (whole entry, unmodified, looked up)": "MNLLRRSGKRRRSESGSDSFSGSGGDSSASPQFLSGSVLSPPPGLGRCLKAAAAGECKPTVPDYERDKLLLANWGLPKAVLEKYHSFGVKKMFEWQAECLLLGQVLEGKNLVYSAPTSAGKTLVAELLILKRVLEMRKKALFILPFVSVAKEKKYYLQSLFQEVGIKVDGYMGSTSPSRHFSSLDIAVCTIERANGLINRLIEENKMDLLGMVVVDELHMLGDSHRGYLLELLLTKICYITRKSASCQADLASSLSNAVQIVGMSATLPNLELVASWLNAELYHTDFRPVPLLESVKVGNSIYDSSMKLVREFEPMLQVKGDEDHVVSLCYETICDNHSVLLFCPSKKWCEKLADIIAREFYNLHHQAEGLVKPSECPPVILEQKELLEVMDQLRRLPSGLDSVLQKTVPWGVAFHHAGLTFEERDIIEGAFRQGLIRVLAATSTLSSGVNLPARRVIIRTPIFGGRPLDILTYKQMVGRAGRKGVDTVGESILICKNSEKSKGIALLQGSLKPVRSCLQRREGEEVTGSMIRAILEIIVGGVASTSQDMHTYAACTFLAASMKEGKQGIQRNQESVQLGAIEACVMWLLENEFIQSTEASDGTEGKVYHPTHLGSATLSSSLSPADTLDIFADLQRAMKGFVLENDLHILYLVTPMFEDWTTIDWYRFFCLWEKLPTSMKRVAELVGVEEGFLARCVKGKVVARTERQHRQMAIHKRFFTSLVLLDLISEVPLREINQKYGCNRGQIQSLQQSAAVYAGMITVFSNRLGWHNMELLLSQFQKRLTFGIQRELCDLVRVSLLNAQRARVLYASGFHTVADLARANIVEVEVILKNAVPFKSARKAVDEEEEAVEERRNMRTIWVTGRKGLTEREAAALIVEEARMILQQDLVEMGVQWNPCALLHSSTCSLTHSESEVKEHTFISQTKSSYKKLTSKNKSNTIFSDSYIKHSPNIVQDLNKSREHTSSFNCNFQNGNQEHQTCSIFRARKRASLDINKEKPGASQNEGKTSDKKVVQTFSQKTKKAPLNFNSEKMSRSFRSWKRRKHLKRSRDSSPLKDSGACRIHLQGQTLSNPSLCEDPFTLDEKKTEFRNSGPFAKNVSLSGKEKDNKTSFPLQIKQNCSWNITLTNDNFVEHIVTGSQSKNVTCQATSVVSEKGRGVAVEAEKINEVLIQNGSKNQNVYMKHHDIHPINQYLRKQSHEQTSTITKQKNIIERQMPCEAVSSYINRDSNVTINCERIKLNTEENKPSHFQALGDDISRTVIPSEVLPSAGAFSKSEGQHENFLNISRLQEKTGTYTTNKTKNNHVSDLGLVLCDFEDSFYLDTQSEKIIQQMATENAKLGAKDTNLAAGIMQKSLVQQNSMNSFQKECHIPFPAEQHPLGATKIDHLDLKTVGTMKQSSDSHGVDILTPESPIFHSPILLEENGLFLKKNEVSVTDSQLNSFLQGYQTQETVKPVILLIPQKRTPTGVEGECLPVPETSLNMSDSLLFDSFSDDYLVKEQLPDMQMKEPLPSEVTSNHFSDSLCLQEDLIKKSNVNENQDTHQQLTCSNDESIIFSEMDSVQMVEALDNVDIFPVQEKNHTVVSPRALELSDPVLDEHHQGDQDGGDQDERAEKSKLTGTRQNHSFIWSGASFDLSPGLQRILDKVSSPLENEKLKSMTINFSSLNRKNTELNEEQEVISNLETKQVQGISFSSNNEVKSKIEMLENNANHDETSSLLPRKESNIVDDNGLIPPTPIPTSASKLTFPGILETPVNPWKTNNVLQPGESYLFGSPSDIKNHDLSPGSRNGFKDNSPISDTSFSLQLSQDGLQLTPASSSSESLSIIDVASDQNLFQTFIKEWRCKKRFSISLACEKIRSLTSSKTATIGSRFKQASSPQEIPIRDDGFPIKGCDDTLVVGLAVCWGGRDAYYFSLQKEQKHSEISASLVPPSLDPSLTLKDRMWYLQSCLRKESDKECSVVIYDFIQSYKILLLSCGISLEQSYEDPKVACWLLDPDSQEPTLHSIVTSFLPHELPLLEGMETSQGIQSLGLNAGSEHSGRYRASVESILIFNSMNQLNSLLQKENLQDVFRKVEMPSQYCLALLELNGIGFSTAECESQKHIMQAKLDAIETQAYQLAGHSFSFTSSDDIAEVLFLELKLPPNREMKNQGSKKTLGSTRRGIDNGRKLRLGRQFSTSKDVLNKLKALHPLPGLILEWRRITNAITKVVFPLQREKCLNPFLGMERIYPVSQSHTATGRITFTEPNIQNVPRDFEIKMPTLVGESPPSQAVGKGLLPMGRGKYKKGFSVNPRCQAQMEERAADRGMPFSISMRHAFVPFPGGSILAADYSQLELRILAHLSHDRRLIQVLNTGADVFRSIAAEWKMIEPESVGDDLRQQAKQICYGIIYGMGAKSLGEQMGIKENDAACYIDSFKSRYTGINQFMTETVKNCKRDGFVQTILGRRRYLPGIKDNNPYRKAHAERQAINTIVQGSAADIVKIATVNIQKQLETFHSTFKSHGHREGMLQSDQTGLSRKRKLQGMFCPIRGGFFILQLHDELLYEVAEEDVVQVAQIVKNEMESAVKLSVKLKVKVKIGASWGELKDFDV"}
{"Structure (SMILES)": "CCOC(=O)[C@@](C)(N)Cc1ccc(O)c(O)c1", "remaining activity": "91.1%"}
{"Structure (SMILES)": "CC(C)[C@H](CO)Nc1nc(Nc2cccc(Cl)c2)c2ncn(C(C)C)c2n1", "remaining activity": "101%"}
{"Structure (SMILES)": "COc1ccc(-c2cc3nccn3c(Nc3ncccc3C(N)=O)n2)cc1OC", "remaining activity": "103%"}
{"Structure (SMILES)": "CN(C)Cc1ccc(S(=O)(=O)n2ccc(/C=C/C(=O)NO)c2)cc1", "remaining activity": "102%"}
{"Structure (SMILES)": "Cc1ccc(S(=O)(=O)c2ccc([N+](=O)[O-])o2)cc1", "remaining activity": "104%"}
{"Structure (SMILES)": "CNC(=O)c1c(F)cccc1Nc1nc(Nc2cc3c(ccn3C(=O)CN(C)C)cc2OC)nc2[nH]ccc12", "remaining activity": "95.3%"}
{"Structure (SMILES)": "CS(=O)(=O)c1ccc([C@@H](O)[C@@H](CO)NC(=O)C(Cl)Cl)cc1", "remaining activity": "98.1% and 101%"}
{"Structure (SMILES)": "C=CC(N)CCC(=O)O (centres unmarked)", "remaining activity": "95.7%"}
{"Structure (SMILES)": "COc1cc2ccc(=O)oc2cc1O", "remaining activity": "74%"}
{"Structure (SMILES)": "C[C@H]1[C@H](C)CC[C@]2(C(=O)O[C@@H]3O[C@H](CO[C@@H]4O[C@H](CO)[C@@H](O[C@@H]5O[C@H](C)[C@H](O)[C@@H](O)[C@H]5O)[C@H](O)[C@H]4O)[C@@H](O)[C@H](O)[C@H]3O)CC[C@]3(C)C(=CC[C@@H]4[C@@]5(C)C[C@@H](O)[C@H](O)[C@@](C)(CO)[C@@H]5CC[C@]43C)[C@H]12", "remaining activity": "106%"}
{"Structure (SMILES)": "COc1ncnc(NS(=O)(=O)c2ccc(N)cc2)c1OC", "remaining activity": "100%"}
{"Structure (SMILES)": "O=c1c2ccccc2nc2n1CCc1c-2[nH]c2ccccc12", "remaining activity": "99.5% and 96.6%"}
{"Structure (SMILES)": "COC(=O)[C@H]1[C@H]2C[C@@H]3c4[nH]c5cc(OC)ccc5c4CCN3C[C@H]2C[C@@H](OC(=O)c2cc(OC)c(OC)c(OC)c2)[C@@H]1OC", "remaining activity": "93.8% and 84.5% and 99.6%"}
{"Structure (SMILES)": "CN(C/C=C/C#CC(C)(C)C)Cc1cccc2ccccc12", "remaining activity": "81.7% and 95.9%"}
{"Structure (SMILES)": "COc1ccc2nc3n[nH]c(C)c3c(NCCOCCO)c2c1", "remaining activity": "98.3%"}
{"Structure (SMILES)": "Cc1c(NC(=O)OC[C@@H]2COCCN2)cn2ncnc(Nc3ccc4c(cnn4Cc4cccc(F)c4)c3)c12", "remaining activity": "109%"}
{"Structure (SMILES)": "CCN(CC)CCN(Cc1ccc(-c2ccc(C(F)(F)F)cc2)cc1)C(=O)Cn1c(SCc2ccc(F)cc2)nc(=O)c2c1CCC2", "remaining activity": "99.2%"}
{"data": "Series 2", "Compound": "CC(C)n1cnc(-c2ccc(F)cc2)c1-c1ncc(C(=O)Nc2ccc(N3CCN(C)CC3)cc2)[nH]1", "technique": "phase 2a trial", "host": "idiopathic pulmonary fibrosis patients"}
{"conditions": "30 mg once daily, adverse event grade 3", "patients with diarrhoea [%]": 0}
{"conditions": "dose not given, adverse event grade 3, all dose arms pooled", "patients with diarrhoea [%]": 0}
{"conditions": "dose not given, adverse event grade 5, all dose arms pooled", "patients with diarrhoea [%]": 0}
{"conditions": "30 mg once daily, adverse event grade 4", "patients with diarrhoea [%]": 0}
{"conditions": "dose not given, adverse event grade 4, all dose arms pooled", "patients with diarrhoea [%]": 0}
{"conditions": "30 mg once daily, adverse event grade 5", "patients with diarrhoea [%]": 0}
{"data": "Series 3", "SMILES": "Cc1nc(C2CCN(C(=O)c3ccc(OC(F)(F)F)cc3N)CC2)c2ncc(N3CCN(C)CC3)cc2n1", "concentration": "1 µM"}
{"target": "BRSK2 (Homo sapiens, UniProt Q8IWQ3)", "assay": "cell-free assay, competition with immobilised ligand", "remaining binding": "100%"}
{"target": "PIK3CA (Homo sapiens, UniProt P42336, M1043I)", "assay": "cell-free assay, competition with immobilised ligand", "remaining binding": "96%"}
{"target": "FRK (Homo sapiens, UniProt P42685)", "assay": "cell-free assay, competition with immobilised ligand", "remaining binding": "95%"}
{"target": "STK17A (Homo sapiens, UniProt Q9UEE5)", "assay": "cell-free assay, competition with immobilised ligand", "remaining binding": "100%"}
{"target": "LRRK2 (Homo sapiens, UniProt Q5S007)", "assay": "cell-free assay, competition with immobilised ligand", "remaining binding": "89%"}
{"target": "COQ8A (Homo sapiens, UniProt Q8NI60)", "assay": "cell-free assay, competition with immobilised ligand", "remaining binding": "100%"}
{"target": "WNK1 (Homo sapiens, UniProt Q9H4A3)", "assay": "cell-free assay, competition with immobilised ligand", "remaining binding": "94%"}
{"target": "SLK (Homo sapiens, UniProt Q9H2G2)", "assay": "cell-free assay, competition with immobilised ligand", "remaining binding": "97%"}
{"target": "NEK2 (Homo sapiens, UniProt P51955)", "assay": "cell-free assay, competition with immobilised ligand", "remaining binding": "100%"}
{"target": "NUAK1 (Homo sapiens, UniProt O60285)", "assay": "cell-free assay, competition with immobilised ligand", "remaining binding": "95%"}
{"target": "MAP3K20 (Homo sapiens, UniProt Q9NYL2)", "assay": "cell-free assay, competition with immobilised ligand", "remaining binding": "95%"}
{"target": "CDC42BPG (Homo sapiens, UniProt Q6DT37)", "assay": "competition binding", "remaining binding": "100%"}
{"target": "eIF-2-alpha kinase GCN2, C-terminal kinase domain (EIF2AK4, Homo sapiens, UniProt Q9P2K8, S808G)", "assay": "cell-free assay, competition with immobilised ligand", "remaining binding": "90%"}
{"target": "MYLK3 (Homo sapiens, UniProt Q32MK0)", "assay": "cell-free assay, competition with immobilised ligand", "remaining binding": "100%"}
{"target": "PRKAA1 (Homo sapiens, UniProt Q13131)", "assay": "cell-free assay, competition with immobilised ligand", "remaining binding": "98%"}
{"target": "CAMK2G (Homo sapiens, UniProt Q13555)", "assay": "cell-free assay, competition with immobilised ligand", "remaining binding": "100%"}
{"target": "FGFR3 (Homo sapiens, UniProt P22607)", "assay": "cell-free assay, competition with immobilised ligand", "remaining binding": "100%"}
{"target": "MAPK1 (Homo sapiens, UniProt P28482)", "assay": "cell-free assay, competition with immobilised ligand", "remaining binding": "98%"}
{"target": "PLK4 (Homo sapiens, UniProt O00444)", "assay": "cell-free assay, competition with immobilised ligand", "remaining binding": "77%"}
{"target": "FGR (Homo sapiens, UniProt P09769)", "assay": "cell-free assay, competition with immobilised ligand", "remaining binding": "100%"}
{"target": "CDK18 (Homo sapiens, UniProt Q07002)", "assay": "cell-free assay, competition with immobilised ligand", "remaining binding": "100%"}
{"target": "ULK1 (Homo sapiens, UniProt O75385)", "assay": "cell-free assay, competition with immobilised ligand", "remaining binding": "49%"}
{"target": "GRK1 (Homo sapiens, UniProt Q15835)", "assay": "cell-free assay, competition with immobilised ligand", "remaining binding": "100%"}
{"target": "HIPK4 (Homo sapiens, UniProt Q8NE63)", "assay": "cell-free assay, competition with immobilised ligand", "remaining binding": "88%"}
{"target": "PRKCQ (Homo sapiens, UniProt Q04759)", "assay": "cell-free assay, competition with immobilised ligand", "remaining binding": "93%"}
{"data": "Series 4", "target": "Calcium/calmodulin-dependent protein kinase type II subunit gamma (CAMK2G, Homo sapiens, UniProt Q13555)", "effect on": "enzyme activity", "action": "inhibitor", "concentration": "0.5 µM", "relative to": "control"}
{"Structure (SMILES)": "O=C1c2ccccc2-c2nc3nnnn3nc21", "remaining activity": "91.1%"}
{"Structure (SMILES)": "c1cc(-c2cnn3cc(-c4ccc(OCCN5CCCCC5)cc4)cnc23)ccn1", "remaining activity": "74.8%"}
{"Structure (SMILES)": "FC(F)(F)c1ccc(/C=C/c2nc(COc3ccc(CCCCn4ccnn4)cc3)co2)cc1", "remaining activity": "99%"}
{"Structure (SMILES)": "CC(C)N(CCC(=O)c1ccc2ccccc2c1)Cc1ccccc1", "remaining activity": "97.7%"}
{"Structure (SMILES)": "NC(=O)c1cccc(-c2cc(Nc3ccc(OC(F)(F)F)cc3)ncn2)c1", "remaining activity": "102%"}
{"Structure (SMILES)": "O=c1c(-c2ccc(F)cc2)c(-c2ccncc2)[nH]n1-c1ccc(Cl)cc1", "remaining activity": "109%"}
{"Structure (SMILES)": "O=Nc1c(-c2c(O)[nH]c3ccccc23)[nH]c2ccccc12", "remaining activity": "69.8%"}
{"Structure (SMILES)": "CC(C)n1cnc2c(Nc3cccc(Cl)c3)nc(NCCO)nc21", "remaining activity": "106%"}
{"Structure (SMILES)": "COc1cc2c(N3CCN(C(=O)Nc4ccc(OC(C)C)cc4)CC3)ncnc2cc1OCCCN1CCCCC1", "remaining activity": "101%"}
{"Structure (SMILES)": "CCN(CC)CCCCN1c2ccccc2Oc2ccc(Cl)cc21", "remaining activity": "104%"}
{"Structure (SMILES)": "C[C@@H](N)[C@H]1CC[C@H](C(=O)Nc2ccncc2)CC1", "remaining activity": "101%"}
{"Structure (SMILES)": "O=C(c1ccccc1)c1ccc(N2CCOCC2)cc1O", "remaining activity": "94%"}
{"Structure (SMILES)": "N#C/C(=C(/N)SC1C=CC=CC1)c1cccc(C(O)c2ccncc2)c1 (centres unmarked)", "remaining activity": "111%"}
{"Structure (SMILES)": "CCCCc1c(-c2ccc(O)cc2)[nH]c2nccnc12", "remaining activity": "101%"}
{"Structure (SMILES)": "O=C(O)/C=C/c1cc(Br)c(Br)c(Br)c1Br", "remaining activity": "104%"}
{"Structure (SMILES)": "CNc1cc2c(Nc3cccc(Br)c3)ncnc2cn1", "remaining activity": "105%"}
{"Structure (SMILES)": "N#CC(c1ccnc(NCCc2cccnc2)n1)c1nc2ccccc2s1 (centres unmarked)", "remaining activity": "111%"}
{"Structure (SMILES)": "O=C1NC(=O)/C(=C/c2ccc3c(c2)OC(F)(F)O3)S1", "remaining activity": "102%"}
{"Structure (SMILES)": "CC(C)(C)c1nc2c3cc[nH]c(=O)c3c3cc(F)ccc3c2[nH]1", "remaining activity": "72.8%"}
{"Structure (SMILES)": "NC(=O)c1ccc(-c2nc(-c3ccc4c(c3)OCCO4)c(-c3ccccn3)[nH]2)cc1", "remaining activity": "97.4%"}
{"Structure (SMILES)": "Nc1nc(Nc2ccc(S(N)(=O)=O)cc2)nn1C(=S)Nc1c(F)cccc1F", "remaining activity": "15.6%"}
{"Structure (SMILES)": "Clc1ccc(Nc2nnc(Cc3ccncc3)c3ccccc23)cc1", "remaining activity": "115%"}
{"Structure (SMILES)": "COc1cc2c(Nc3ccc(Br)cc3F)ncnc2cc1OCC1CCN(C)CC1", "remaining activity": "112%"}
